Assay results of several laboratories.
Protocols differ between the studies behind these lines. Values joined by “and” are separate records of one study, mostly repeats; a detail may differ. ± gives the spread as reported.
B1: IL18 37-193 C74S/S101C/C104S/T109C/C112S/C163S (Homo sapiens, UniProt Q14116); chain YFGKLESKLSVIRNLNDQVLFIDQGNRPLFEDMTDSDSRDNAPRTIFIISMYKDSQPRGMAVTICVKSEKISCLSSENKIISFKEMNPPDNIKDTKSDIIFFQRSVPGHDNKMQFESSSYEGYFLASEKERDLFKLILKKEDELGDRSIMFTVQNED
B2: NOTCH3 EGF5-12 197-505 (Homo sapiens, UniProt Q9UM47); sequence looked up; chain PAVPCAPSPCRNGGTCRQSGDLTYDCACLPGFEGQNCEVNVDDCPGHRCLNGGTCVDGVNTYNCQCPPEWTGQFCTEDVDECQLQPNACHNGGTCFNTLGGHSCVCVNGWTGESCSQNIDDCATAVCFHGATCHDRVASFYCACPMGKTGLLCHLDDACVSNPCHEDAICDTNPVNGRAICTCPPGFTGGACDQDVDECSIGANPCEHLGRCVNTQGSFLCQCGRGYTGPRCETDVNECLSGPCRNQATCLDRIGQFTCICMAGFTGTYCEVDIDECQSSPCVNGGVCKDRVNGFSCTCPSGFSGSTCQ
B3: Notch ankyrin domain 1902-2139 (Drosophila, UniProt P07207); chain GLTPLMIAAVRGGGLDTGEDIENNEDSTAQVISDLLAQGAELNATMDKTGETSLHLAARFARADAAKRLLDAGADANCQDNTGRTPLHAAVAADAMGVFQILLRNRATNLNARMHDGTTPLILAARLAIEGMVEDLITADADINAADNSGKTALHWAAAVNNTEAVNILLMHHANRDAQDDKDETPLFLAAREGSYEACKALLDNFANREITDHMDRLPRDVASERLHHDIVRLLDEH
B4: PVRIG ECD residues 41-172 S143T/V90L/A83G/G82H/S69N (Homo sapiens, UniProt Q6DKI7); chain LNVRQTPEVWVQVRMEATELSSFTIRCGFLGSGNISLVTVSWGGPNHGGGTTLALLHPERGIRQWAPARQARWETQSSISLILEGSGASSPCANTTFCCKFASFPEGTWEACGSLPPSSDPGLSAPPTPAPILRADL
B5: FOLR3 (Homo sapiens, UniProt P41439); sequence looked up; chain QPRSARARTDLLNVCMNAKHHKTQPSPEDELYGQCSPWKKNACCTASTSQELHKDTSRLYNFNWDHCGKMEPTCKRHFIQDSCLYECSPNLGPWIRQVNQSWRKERILNVPLCKEDCERWWEDCRTSYTCKSNWHKGWNWTSGINECPAGALCSTFESYFPTPAALCEGLWSHSFKVSNYSRGSGRCIQMWFDSAQGNPNEEVAKFYAAAMNAGAPSRGIIDS
B6: CDC48A 1-463 (Arabidopsis thaliana, UniProt P54609); chain MSTPAESSDSKSKKDFSTAILERKKSPNRLVVDEAINDDNSVVSLHPATMEKLQLFRGDTILIKGKKRKDTVCIALADETCEEPKIRMNKVVRSNLRVRLGDVISVHQCPDVKYGKRVHILPVDDTVEGVTGNLFDAYLKPYFLEAYRPVRKGDLFLVRGGMRSVEFKVIETDPAEYCVVAPDTEIFCEGEPVKREDEERLDDVGYDDVGGVRKQMAQIRELVELPLRHPQLFKSIGVKPPKGILLYGPPGSGKTLIARAVANETGAFFFCINGPEIMSKLAGESESNLRKAFEEAEKNAPSIIFIDEIDSIAPKREKTNGEVERRIVSQLLTLMDGLKSRAHVIVMGATNRPNSIDPALRRFGRFDREIDIGVPDEIGRLEVLRIHTKNMKLAEDVDLERISKDTHGYVGADLAALCTEAALQCIREKMDVIDLEDDSIDAEILNSMAVTNEHFHTALGNSN
B7: YWHAH (Homo sapiens, UniProt Q04917); sequence looked up; chain MGDREQLLQRARLAEQAERYDDMASAMKAVTELNEPLSNEDRNLLSVAYKNVVGARRSSWRVISSIEQKTMADGNEKKLEKVKAYREKIEKELETVCNDVLSLLDKFLIKNCNDFQYESKVFYLKMKGDYYRYLAEVASGEKKNSVVEASEAAYKEAFEISKEQMQPTHPIRLGLALNFSVFYYEIQNAPEQACLLAKQAFDDAIAELDTLNEDSYKDSTLIMQLLRDNLTLWTSDQQDEEAGEGN
B8: NFKBIA 67-287 (Homo sapiens, UniProt P25963); sequence looked up; chain KQQLTEDGDSFLHLAIIHEEKALTMEVIRQVKGDLAFLNFQNNLQQTPLHLAVITNQPEIAEALLGAGCDPELRDFRGNTPLHLACEQGCLASVGVLTQSCTTPHLHSILKATNYNGHTCLHLASIHGYLGIVELLVSLGADVNAQEPCNGRTALHLAVDLQNPDLVSLLLKCGADVNRVTYQGYSPYQLTWGRPSTRIQQQLGQLTLENLQMLPESEDEE
B9: P4HB abb'x fragment (Homo sapiens); chain DAPEEEDHVLVLRKSNFAEALAAHKYLLVEFYAPWCGHCKALAPEYAKAAGKLKAEGSEIRLAKVDATEESDLAQQYGVRGYPTIKFFRNGDTASPKEYTAGREADDIVNWLKKRTGPAATTLPDGAAAESLVESSEVAVIGFFKDVESDSAKQFLQAAEAIDDIPFGITSNSDVFSKYQLDKDGVVLFKKFDEGRNNFEGEVTKENLLDFIKHNQLPLVIEFTEQTAPKIFGGEIKTHILLFLPKSVSDYDGKLSNFKTAAESFKGKILFIFIDSDHTDNQRILEFFGLKKEECPAVRLITLEEEMTKYKPESEELTAERITEFCHRFLEGKIKPHLMSQELPEDWDKQP
Chain of UniProt P00736 (whole entry, looked up): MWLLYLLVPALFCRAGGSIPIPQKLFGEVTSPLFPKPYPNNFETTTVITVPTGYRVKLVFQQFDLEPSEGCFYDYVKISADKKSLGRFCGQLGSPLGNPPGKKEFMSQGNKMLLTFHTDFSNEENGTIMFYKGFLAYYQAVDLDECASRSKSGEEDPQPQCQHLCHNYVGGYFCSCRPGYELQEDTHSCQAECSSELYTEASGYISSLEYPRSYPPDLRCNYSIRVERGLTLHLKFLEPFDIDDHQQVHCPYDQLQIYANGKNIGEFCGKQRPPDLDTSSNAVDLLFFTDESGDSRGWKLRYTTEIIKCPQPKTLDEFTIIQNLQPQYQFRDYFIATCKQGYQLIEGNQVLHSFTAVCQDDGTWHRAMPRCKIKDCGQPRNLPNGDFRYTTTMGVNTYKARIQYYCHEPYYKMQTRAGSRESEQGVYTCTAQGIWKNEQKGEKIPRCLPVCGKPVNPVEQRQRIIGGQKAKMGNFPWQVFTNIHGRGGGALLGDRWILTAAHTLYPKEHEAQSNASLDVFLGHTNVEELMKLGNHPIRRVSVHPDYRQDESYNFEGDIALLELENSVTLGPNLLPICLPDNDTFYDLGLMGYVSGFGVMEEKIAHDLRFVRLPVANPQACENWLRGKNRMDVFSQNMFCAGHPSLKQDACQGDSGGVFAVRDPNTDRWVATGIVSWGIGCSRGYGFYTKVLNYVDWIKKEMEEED
Chain of UniProt Q4V3D3 (whole entry, looked up): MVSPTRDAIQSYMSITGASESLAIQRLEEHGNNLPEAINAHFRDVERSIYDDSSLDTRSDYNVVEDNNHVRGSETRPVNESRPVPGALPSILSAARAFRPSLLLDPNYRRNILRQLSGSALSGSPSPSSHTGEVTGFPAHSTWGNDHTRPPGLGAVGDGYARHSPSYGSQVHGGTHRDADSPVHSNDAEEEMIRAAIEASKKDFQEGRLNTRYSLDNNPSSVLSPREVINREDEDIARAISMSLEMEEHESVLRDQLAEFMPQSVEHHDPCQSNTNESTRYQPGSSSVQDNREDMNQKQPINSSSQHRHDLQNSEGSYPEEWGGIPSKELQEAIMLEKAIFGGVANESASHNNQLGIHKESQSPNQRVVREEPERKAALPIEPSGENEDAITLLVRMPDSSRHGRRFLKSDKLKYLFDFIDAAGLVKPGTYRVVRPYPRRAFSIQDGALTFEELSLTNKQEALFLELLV
Chain of UniProt P08631 (whole entry, looked up): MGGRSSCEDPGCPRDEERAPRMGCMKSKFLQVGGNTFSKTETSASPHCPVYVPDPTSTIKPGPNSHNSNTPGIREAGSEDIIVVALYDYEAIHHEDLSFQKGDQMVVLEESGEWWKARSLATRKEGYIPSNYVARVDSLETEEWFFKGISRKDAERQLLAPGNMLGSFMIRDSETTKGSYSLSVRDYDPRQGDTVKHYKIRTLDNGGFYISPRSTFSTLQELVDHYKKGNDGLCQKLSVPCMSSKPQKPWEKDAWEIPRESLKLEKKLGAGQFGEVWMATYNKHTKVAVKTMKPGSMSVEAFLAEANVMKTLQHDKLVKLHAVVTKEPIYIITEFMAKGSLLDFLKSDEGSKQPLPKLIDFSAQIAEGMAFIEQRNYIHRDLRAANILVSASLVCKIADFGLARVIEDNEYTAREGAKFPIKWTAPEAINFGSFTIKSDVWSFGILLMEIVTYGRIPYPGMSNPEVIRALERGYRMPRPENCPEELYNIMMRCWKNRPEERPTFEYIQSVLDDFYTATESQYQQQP
Chain of UniProt Q23985 (whole entry, looked up): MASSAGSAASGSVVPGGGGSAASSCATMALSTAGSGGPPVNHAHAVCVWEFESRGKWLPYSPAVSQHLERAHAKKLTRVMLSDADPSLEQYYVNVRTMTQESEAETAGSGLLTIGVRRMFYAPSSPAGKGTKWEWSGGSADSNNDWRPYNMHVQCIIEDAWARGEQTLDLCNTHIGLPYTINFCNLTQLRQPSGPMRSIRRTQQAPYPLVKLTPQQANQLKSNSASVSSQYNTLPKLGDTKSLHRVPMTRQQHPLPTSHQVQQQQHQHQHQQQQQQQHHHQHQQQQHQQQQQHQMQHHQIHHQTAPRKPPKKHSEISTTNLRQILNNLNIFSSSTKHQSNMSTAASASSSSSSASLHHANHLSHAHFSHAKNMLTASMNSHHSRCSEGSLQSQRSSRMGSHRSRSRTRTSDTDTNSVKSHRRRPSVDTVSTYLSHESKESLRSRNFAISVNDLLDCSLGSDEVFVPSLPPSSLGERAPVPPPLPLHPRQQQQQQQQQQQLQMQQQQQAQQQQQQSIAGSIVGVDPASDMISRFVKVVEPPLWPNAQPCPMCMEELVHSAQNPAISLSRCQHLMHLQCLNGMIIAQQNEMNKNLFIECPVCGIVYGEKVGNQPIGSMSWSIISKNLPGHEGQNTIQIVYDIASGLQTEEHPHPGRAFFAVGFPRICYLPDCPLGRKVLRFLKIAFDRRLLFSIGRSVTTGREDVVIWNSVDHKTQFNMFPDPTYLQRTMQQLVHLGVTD
Chain of UniProt Q9NR61 (whole entry, unmodified, looked up): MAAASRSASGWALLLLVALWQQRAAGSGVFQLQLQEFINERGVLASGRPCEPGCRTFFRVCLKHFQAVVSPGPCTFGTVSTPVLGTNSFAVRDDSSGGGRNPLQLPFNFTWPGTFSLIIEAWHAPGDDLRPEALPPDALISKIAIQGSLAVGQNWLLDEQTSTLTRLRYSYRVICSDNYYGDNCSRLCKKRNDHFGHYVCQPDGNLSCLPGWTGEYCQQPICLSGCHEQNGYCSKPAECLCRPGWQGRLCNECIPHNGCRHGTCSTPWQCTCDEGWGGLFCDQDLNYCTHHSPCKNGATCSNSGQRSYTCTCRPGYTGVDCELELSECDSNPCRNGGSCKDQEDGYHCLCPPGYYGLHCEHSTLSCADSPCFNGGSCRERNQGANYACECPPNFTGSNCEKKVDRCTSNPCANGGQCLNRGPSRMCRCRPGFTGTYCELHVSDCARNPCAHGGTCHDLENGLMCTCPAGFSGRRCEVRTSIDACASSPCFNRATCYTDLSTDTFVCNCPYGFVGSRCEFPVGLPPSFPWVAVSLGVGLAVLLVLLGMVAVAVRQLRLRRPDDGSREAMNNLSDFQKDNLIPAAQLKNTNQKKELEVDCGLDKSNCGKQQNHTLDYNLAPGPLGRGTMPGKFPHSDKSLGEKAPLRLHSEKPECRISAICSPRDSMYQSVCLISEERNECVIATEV
Chain of UniProt Q9NVR5 (whole entry, looked up): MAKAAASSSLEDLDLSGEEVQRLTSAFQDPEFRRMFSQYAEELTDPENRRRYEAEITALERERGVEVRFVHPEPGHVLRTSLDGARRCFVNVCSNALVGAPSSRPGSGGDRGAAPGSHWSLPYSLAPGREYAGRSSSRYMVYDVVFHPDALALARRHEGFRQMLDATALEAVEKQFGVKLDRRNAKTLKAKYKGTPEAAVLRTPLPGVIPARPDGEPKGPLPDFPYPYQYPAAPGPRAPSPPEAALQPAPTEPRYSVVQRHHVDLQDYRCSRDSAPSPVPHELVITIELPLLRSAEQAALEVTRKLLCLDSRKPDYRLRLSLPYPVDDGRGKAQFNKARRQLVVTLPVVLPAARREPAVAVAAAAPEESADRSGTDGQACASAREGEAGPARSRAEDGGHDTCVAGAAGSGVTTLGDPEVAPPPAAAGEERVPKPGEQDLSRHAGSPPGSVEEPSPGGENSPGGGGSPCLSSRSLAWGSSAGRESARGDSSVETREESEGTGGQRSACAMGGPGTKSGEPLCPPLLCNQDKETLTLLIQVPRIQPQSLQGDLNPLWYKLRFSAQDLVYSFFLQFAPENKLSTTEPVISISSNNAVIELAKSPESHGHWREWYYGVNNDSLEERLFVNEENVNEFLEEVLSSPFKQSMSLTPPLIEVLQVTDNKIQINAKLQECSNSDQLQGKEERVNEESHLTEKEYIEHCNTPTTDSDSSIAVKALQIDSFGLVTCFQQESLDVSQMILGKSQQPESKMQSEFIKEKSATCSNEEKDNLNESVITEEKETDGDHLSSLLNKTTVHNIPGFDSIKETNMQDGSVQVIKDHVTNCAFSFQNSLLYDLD
Chain of UniProt Q92743 (whole entry, looked up): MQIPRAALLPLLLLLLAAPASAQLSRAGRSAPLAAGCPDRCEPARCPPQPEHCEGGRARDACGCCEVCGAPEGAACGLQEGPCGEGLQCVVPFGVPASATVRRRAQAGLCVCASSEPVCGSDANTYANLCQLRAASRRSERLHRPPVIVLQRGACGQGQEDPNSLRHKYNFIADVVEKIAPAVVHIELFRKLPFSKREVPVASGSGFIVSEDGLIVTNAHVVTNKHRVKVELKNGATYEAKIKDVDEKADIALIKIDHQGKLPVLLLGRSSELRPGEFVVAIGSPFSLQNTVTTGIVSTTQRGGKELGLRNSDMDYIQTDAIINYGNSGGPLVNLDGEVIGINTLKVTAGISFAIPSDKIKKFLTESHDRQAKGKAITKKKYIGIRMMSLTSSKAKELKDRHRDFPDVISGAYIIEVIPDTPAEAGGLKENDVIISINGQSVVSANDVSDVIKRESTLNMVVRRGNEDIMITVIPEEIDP
Chain of UniProt Q92692 (whole entry, looked up): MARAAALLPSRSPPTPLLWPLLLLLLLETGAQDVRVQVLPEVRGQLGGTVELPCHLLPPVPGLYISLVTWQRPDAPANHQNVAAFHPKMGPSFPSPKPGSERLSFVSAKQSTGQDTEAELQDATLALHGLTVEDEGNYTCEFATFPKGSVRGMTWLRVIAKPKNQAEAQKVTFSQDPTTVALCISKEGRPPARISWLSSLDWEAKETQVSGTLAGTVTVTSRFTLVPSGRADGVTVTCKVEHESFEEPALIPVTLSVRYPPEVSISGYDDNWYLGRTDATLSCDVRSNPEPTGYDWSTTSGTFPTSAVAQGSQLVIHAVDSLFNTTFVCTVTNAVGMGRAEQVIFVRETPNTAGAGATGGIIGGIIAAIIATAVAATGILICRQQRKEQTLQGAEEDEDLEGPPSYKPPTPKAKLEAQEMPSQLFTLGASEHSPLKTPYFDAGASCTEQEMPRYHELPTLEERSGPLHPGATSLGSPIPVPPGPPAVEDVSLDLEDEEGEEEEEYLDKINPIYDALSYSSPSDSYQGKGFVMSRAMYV

Substance	partner	method	form	temperature	setting	with	Kd
KISPPTPKPRPPRPLPVAPGS (PIK3R1 proline-rich region 1 (Homo sapiens))	HCK 78-138 (Homo sapiens, UniProt P08631)	ITC	peptide	–	–	–	33800 ± 3500 nM
ENAH EVH1 domain (Homo sapiens)	ABI3 peptide (Homo sapiens)	BLI	–	–	–	–	25700 nM
DLDSDDEY (TELO2 488-494 (Homo sapiens); pS491)	DNAAF2 73-197 (Homo sapiens, UniProt Q9NVR5)	ITC	peptide	–	–	–	78100 ± 16900 nM
B1	IL18BP (Homo sapiens, UniProt O95998)	SPR	–	–	–	–	0.011 nM
KLLMIIHDRREFAKFEKEKMNAKWDTQENPIYKSPINNFKNPNYGRKAGL (ITGB1 752-801 (Homo sapiens, UniProt P05556-5); sequence looked up)	Tln2 312-408 Q407K (Mus musculus, UniProt Q71LX4)	NMR titration	–	–	–	–	39000 nM
MERDEYQLPNSHGKNTFLSRIFGLQSDEVNPSLNSQEMSNFPLPDIER (ATG9 1-48 (Saccharomyces cerevisiae, UniProt Q12142); sequence looked up)	ATG23 full-length, dimer (Saccharomyces cerevisiae, UniProt Q06671)	BLI	–	–	–	–	1230 nM
SWC5 fragment (Saccharomyces cerevisiae)	H2A/H2B dimer (Homo sapiens)	ITC	–	–	–	–	6200 nM
SIQEHMAIDVCPGPIRPIKQISDYFPRFPRGLPPTAAPRAPAPPDAPA (Doc2b 13-60 (Mus musculus))	Unc13a MUN domain del1453-1531 (Rattus norvegicus)	ITC	–	–	–	–	230 ± 30 nM
B2 (NOTCH3 EGF5-12 197-505)	DLL4 27-400 G28S/F107L/I143F/H194Y/L206P/N257P/T271L/F280Y/S301R/Q305P (Homo sapiens, UniProt Q9NR61)	SPR	–	–	–	–	49 nM
Histone H4 fragment (Homo sapiens)	KMT2D PHD triple cassette (Homo sapiens)	fluorescence titration	–	–	–	tryptophan fluorescence	9000 nM
MBL-A mature, hydroxylysine, hydroxyproline in collagen (Rattus norvegicus, UniProt P19999)	C1R (Homo sapiens, UniProt P00736)	SPR	–	–	–	CaCl2 140 mM	274 nM
B3 (Notch ankyrin domain 1902-2139)	dx (Drosophila melanogaster, UniProt Q23985)	AUC	–	–	–	–	12800 nM
B4	NECTIN2 32-350 (Homo sapiens, UniProt Q92692)	SPR	designed binder	–	–	–	77 nM
alirocumab, partial Asn deamidation	PCSK9 (Homo sapiens, UniProt Q8NBP7)	SPR	–	–	–	–	0.62 nM
B5 (FOLR3)	HTRA1 (Homo sapiens, UniProt Q92743)	BLI	–	–	simple kinetic fit	–	530 nM
B6 (CDC48A 1-463)	PUX9 (Arabidopsis thaliana, UniProt Q4V3D3)	ITC	–	25 °C	–	–	8200 ± 1600 nM
DHEYVLTESFLDSGAFPNHDVIDHNKMLNSNYNGNGILNKGGVLGLVKEYYKKSDVGR (ATG9 940-997 (Saccharomyces cerevisiae, UniProt Q12142); sequence looked up)	ATG23 Y16E (UniProt Q06671)	BLI	–	–	–	–	3340 nM
Cacna1c fragment F1748E (Rattus norvegicus)	CACNA1C IQ motif 1644-1668, fluorescein label (UniProt P15381)	fluorescence polarisation	–	–	–	–	8000 ± 3000 nM
SDLACRLLGQSMDESGLPQLTSYDCEVNAPIQGSGSGSGSRNLLQGEELLRALDQVN (HIF-1α CTAD 776-826 (GS)3 insertion (Homo sapiens, UniProt Q16665); sequence looked up)	Crebbp 340-439 (Mus musculus, UniProt P45481)	fluorescence polarisation	–	–	–	–	130 nM
B7 (YWHAH)	NEDD4L full length isoform 5, pS342/pS428 (Homo sapiens, UniProt Q96PU5-5)	AUC	–	–	without Ca2+	–	3 nM
AP2A2/AP2B1/AP2M1/AP2S1 AP-2 core (Mus musculus)	CCDC32 150-179, HaloTag, Atto488 label (Mus musculus, UniProt Q8BS39)	FP	–	–	–	–	610 nM
B8 (NFKBIA 67-287)	RelA/NFKB1 190-321	ITC	–	–	–	–	< 1 nM
B9 (P4HB abb'x fragment)	ITGA2B/ITGB3 complex (Homo sapiens)	SPR	–	–	–	–	59 nM and 82 nM

Excerpt of the above:
Substance	partner	method	form	temperature	setting	with	Kd
AP2A2/AP2B1/AP2M1/AP2S1 AP-2 core (Mus musculus)	CCDC32 150-179, HaloTag, Atto488 label (Mus musculus, UniProt Q8BS39)	FP	–	–	–	–	610 nM
B8 (NFKBIA 67-287)	RelA/NFKB1 190-321	ITC	–	–	–	–	< 1 nM
